Measurements from different studies.
Each line is one published result; not all experiments were run side by side. ± gives the spread as reported.
BCHE: Cholinesterase (BCHE, Homo sapiens, UniProt P06276)
PSMB6: Proteasome subunit beta type-6 (PSMB6, Homo sapiens, UniProt P28072)

Chains of the proteins cited; added tags and fusions are not shown. Residues count along the entry.
UniProt P28072, whole entry, looked up: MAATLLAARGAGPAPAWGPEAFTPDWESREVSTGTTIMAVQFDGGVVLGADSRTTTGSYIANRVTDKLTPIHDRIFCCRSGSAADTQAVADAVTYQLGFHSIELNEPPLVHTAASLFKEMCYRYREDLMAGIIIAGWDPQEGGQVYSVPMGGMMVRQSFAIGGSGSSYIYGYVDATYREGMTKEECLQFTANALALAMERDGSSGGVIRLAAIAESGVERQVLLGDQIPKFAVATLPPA
UniProt P0A0C1, whole entry: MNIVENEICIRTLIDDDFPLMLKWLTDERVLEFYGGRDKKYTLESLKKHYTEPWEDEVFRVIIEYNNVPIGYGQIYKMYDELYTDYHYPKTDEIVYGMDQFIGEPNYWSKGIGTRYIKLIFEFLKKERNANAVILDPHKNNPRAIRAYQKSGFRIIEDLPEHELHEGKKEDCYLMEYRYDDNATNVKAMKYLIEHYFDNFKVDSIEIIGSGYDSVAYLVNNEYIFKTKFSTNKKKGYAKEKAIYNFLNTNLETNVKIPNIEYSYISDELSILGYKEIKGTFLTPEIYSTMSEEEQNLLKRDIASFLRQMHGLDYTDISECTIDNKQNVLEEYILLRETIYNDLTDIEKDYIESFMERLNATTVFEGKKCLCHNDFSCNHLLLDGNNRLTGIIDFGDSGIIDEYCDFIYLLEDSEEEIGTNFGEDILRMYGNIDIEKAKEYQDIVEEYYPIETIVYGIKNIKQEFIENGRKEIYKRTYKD
UniProt P28074, whole entry, looked up: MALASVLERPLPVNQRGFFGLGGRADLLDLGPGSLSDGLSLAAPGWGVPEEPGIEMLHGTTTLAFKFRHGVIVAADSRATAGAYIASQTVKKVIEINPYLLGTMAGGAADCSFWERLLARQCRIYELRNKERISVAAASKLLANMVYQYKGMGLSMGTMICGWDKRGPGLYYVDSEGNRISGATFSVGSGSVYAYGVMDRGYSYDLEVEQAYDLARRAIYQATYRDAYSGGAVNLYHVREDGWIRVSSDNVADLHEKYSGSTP
UniProt P08913, whole entry: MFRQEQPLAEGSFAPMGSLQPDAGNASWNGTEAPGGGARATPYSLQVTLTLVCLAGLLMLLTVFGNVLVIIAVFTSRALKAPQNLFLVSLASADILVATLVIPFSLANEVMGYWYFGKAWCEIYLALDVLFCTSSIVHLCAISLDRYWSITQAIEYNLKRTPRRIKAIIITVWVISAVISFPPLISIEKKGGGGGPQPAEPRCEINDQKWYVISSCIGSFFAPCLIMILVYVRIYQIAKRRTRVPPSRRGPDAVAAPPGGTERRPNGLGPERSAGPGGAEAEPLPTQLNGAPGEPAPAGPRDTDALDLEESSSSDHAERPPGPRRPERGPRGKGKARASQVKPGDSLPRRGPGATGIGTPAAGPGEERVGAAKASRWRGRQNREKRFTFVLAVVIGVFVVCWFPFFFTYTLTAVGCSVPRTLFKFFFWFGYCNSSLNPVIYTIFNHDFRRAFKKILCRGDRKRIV
UniProt O43175, whole entry K58A/T60A: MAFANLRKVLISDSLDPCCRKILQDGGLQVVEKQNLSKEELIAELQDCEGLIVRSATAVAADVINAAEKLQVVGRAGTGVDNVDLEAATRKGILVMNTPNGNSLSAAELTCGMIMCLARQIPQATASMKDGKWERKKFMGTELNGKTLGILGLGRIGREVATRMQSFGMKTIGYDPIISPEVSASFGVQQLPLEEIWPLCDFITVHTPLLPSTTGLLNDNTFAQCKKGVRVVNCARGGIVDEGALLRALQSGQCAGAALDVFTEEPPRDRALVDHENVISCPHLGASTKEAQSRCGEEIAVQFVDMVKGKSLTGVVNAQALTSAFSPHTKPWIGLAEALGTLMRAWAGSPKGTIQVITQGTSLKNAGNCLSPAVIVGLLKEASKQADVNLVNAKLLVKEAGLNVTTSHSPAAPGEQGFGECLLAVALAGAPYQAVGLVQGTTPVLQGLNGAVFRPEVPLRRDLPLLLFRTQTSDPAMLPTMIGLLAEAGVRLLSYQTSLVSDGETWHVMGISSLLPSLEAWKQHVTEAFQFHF
UniProt P40763, 2-770 limits assumed: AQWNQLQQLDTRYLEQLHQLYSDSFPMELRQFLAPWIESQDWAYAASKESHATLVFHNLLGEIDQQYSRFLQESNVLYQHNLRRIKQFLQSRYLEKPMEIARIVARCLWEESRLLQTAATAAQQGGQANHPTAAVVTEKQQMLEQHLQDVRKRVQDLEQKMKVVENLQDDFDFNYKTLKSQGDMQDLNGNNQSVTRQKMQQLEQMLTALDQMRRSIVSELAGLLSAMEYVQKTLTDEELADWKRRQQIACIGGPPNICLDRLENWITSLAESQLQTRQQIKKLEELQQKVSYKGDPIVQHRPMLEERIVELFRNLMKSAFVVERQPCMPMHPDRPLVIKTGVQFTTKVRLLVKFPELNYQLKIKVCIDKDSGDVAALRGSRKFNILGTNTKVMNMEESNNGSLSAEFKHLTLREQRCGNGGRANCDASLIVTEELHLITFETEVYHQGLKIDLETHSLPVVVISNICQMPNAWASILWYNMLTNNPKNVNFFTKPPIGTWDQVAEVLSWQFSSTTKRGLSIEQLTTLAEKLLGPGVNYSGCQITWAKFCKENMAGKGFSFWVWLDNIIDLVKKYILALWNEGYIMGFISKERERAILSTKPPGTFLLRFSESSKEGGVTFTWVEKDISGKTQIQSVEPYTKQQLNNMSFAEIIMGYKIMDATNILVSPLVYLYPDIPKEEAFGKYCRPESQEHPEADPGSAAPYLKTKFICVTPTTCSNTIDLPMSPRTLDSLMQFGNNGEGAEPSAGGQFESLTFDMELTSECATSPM
UniProt Q62645, whole entry, looked up: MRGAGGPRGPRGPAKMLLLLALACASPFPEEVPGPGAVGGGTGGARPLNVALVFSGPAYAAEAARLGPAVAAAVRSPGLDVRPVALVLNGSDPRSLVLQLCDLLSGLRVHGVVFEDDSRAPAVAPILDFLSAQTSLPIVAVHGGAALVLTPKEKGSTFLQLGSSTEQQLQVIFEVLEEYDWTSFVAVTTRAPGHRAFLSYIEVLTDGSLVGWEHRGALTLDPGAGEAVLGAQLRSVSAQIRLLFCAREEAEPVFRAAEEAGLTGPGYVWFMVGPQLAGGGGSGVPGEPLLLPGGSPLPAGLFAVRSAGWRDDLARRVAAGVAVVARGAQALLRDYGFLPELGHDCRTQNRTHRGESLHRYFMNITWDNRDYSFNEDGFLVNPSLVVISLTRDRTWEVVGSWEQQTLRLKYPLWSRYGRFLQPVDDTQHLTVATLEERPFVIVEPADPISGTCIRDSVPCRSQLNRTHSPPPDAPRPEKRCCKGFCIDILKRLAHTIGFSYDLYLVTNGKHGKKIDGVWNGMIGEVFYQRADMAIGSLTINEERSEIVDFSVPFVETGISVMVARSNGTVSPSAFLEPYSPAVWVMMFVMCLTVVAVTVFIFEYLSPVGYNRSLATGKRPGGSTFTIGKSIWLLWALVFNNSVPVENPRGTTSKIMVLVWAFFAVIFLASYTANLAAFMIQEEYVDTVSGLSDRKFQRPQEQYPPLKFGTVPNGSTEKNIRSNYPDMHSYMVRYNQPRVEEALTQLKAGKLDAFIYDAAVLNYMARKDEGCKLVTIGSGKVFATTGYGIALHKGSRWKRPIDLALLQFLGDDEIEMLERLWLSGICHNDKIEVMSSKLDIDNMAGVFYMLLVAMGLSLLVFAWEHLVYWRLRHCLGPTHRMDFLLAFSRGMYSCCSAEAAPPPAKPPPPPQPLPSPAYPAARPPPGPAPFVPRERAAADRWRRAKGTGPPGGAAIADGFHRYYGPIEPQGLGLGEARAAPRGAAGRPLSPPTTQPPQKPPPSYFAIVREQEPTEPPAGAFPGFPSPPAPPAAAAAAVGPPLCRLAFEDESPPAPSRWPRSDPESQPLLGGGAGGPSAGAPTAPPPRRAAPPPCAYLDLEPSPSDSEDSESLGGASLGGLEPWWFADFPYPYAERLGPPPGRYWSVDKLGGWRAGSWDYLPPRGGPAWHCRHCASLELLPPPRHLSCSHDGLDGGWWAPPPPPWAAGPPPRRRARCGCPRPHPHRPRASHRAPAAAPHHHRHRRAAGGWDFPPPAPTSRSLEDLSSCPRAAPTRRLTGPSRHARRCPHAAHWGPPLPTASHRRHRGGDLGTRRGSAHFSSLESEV
UniProt P22303, whole entry, looked up: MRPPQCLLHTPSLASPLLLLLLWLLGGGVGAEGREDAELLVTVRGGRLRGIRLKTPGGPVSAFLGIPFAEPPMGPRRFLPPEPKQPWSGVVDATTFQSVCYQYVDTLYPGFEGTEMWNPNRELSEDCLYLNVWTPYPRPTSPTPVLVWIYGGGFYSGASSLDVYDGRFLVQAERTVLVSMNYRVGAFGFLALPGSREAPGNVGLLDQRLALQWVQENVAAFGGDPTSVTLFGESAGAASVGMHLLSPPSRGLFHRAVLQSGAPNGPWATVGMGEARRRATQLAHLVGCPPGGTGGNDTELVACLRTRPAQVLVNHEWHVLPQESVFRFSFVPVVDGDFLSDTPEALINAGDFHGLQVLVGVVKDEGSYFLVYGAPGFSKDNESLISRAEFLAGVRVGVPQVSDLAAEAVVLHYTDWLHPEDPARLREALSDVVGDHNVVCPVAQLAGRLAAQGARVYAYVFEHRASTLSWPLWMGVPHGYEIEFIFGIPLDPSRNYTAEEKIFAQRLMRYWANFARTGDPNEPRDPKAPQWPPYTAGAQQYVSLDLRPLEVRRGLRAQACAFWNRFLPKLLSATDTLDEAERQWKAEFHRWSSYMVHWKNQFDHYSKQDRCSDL
UniProt P54756, whole entry, looked up: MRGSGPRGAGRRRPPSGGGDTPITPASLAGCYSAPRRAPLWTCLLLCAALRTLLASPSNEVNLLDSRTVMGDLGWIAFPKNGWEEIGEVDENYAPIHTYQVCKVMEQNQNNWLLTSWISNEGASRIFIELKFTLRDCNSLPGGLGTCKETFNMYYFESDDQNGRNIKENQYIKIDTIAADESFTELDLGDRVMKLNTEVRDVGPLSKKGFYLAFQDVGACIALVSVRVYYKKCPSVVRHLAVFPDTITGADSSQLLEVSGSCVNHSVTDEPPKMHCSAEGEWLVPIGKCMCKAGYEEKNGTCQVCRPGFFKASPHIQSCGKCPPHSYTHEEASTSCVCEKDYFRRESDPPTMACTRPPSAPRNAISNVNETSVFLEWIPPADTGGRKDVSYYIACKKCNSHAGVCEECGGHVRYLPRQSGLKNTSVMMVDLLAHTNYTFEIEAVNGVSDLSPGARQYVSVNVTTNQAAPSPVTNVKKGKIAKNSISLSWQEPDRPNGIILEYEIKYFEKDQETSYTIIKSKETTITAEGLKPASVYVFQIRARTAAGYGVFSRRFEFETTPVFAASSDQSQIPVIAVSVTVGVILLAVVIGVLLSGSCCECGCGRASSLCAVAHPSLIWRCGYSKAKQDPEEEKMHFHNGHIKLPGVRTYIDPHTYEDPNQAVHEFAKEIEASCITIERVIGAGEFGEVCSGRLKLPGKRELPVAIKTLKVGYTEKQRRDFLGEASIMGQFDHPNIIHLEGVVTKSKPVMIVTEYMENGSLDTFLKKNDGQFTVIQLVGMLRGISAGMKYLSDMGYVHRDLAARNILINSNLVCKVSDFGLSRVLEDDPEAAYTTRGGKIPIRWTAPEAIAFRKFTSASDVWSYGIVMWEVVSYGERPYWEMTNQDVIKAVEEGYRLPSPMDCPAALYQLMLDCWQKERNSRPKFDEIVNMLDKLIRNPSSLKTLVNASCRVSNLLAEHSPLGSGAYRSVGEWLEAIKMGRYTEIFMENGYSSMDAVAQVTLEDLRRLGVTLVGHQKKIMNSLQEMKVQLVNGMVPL
UniProt Q13002, 32-908 limits assumed: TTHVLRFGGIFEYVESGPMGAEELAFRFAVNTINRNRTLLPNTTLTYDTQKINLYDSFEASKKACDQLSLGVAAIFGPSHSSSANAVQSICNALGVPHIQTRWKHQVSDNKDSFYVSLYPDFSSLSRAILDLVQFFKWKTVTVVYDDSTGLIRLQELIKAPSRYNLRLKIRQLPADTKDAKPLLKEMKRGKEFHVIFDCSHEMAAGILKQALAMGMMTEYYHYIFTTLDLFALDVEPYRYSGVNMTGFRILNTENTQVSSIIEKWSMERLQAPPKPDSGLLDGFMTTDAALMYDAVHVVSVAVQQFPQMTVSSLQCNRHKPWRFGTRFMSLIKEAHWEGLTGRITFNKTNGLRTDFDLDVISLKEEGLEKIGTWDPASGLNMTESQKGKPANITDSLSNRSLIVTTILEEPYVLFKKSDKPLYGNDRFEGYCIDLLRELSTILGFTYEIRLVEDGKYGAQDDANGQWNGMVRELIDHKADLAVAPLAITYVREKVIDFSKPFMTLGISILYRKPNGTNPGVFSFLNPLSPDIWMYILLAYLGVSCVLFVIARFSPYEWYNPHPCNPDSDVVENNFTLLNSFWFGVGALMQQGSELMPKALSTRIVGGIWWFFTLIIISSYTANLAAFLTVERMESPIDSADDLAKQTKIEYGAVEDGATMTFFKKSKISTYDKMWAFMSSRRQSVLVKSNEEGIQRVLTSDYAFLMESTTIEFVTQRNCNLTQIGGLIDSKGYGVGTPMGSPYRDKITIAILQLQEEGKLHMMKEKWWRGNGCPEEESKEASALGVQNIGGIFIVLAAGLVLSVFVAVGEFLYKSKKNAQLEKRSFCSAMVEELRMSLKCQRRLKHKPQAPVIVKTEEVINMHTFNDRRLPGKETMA

SMILES	target	assay	test system	conditions	scale	endpoint	value
O=C(NOCC1CC1)c1cc(Br)c(F)c(F)c1Nc1ccc(I)cc1Cl	BCHE	enzyme activity	–	–	–	efficacy	-72.6 ± 13.3%
CC1=C(c2ccc(Cl)cc2)S(=O)(=O)N=C1N1CCC(N2CCCCC2)CC1	aacA-aphD (Staphylococcus aureus, UniProt P0A0C1)	acetyltransferase activity, inhibitor	–	concentration not given	–	inhibition	no inhibition
COc1ccc2[nH]cc(CCNC(=O)[C@H](Cc3ccncc3)NC(=O)[C@H](Cc3ccc(Cl)cc3)NC(=O)[C@H](Cc3c[nH]c4ccc(O)cc34)NC(=O)CCCN)c2c1	Ephrin type-A receptor 3 (EPHA3, Homo sapiens, UniProt P29320)	binding, isothermal titration calorimetry	–	–	–	TΔS	5.75 kcal/mol
COc1ccc(C(=O)CSC#N)cc1OC	Aldehyde dehydrogenase, mitochondrial (ALDH2, Homo sapiens, UniProt P05091)	enzyme activity, inhibitor	–	20 µM	–	inhibition	≥ 50%
CCN(CC)c1ccc2c(O)c(C=Nc3ccc(CC(=O)NNc4c5c(nc6ccccc46)CCCC5)cc3)c(=O)oc2c1	BCHE	enzyme activity	–	–	–	efficacy	-99.3 ± 5.35%
Cc1ccc(-c2nsc(=O)o2)s1	Proteasome Macropain subunit MB1 (PSMB5, Homo sapiens, UniProt P28074)	inactivation	human PA28-activated proteasome	–	–	kobs/[I]	148 M⁻¹ s⁻¹
Fc1cccc2c(Nc3ccncc3)cccc12	Alpha-2A adrenergic receptor (ADRA2A, Homo sapiens, UniProt P08913)	plasma membrane loss, BRET rGFP-CAAX biosensor	–	–	–	receptor internalization	no effect
O=c1oc(-c2cccc(C(F)(F)F)c2)ns1	PSMB6	inactivation	human PA28-activated proteasome	–	–	kobs/[I]	0.15 M⁻¹ s⁻¹
O=C(N/N=C/c1cc([N+](=O)[O-])ccc1O)c1ccc(O)cc1O	D-3-phosphoglycerate dehydrogenase (PHGDH, Homo sapiens, UniProt O43175, K58A/T60A)	enzyme activity, inhibitor	–	K57A T59A mutant	–	maximum inhibition	47%
Cc1ccc(S(=O)(=O)N(C)CC(=O)N(Cc2ccc(C3CCCCC3)cc2)c2ccc(C(=O)O)c(O)c2)cc1	Signal transducer and activator of transcription 3 (STAT3, Homo sapiens, UniProt P40763)	co-immunoprecipitation	PANC-1	30, 50, 100 µM, 3 h	–	EGFR co-immunoprecipitated	decreased
COc1ccc(OC[C@H]2c3cccn3CC(=O)N2Cc2cccc(F)c2)cc1	Glutamate receptor ionotropic, NMDA 2D, with GluN1 (Rattus norvegicus, UniProt Q62645)	ion current, positive allosteric modulator, two-electrode voltage clamp	Xenopus oocytes expressing GluN1/GluN2D	–	–	maximum potentiation	370%
CCN1CCN(Cc2ccc(NC(=O)c3ccc(C)c(/C=C/c4cnc5[nH]ccc5c4OC)c3)cc2C(F)(F)F)CC1	Dual specificity testis-specific protein kinase 2 (TESK2, Homo sapiens, UniProt Q96S53)	inhibitor, cell-based kinome screen	human cells	5 µM	relative to: vehicle	log2 fold change	0.327
COc1cc(OC)cc(-c2nsc(=O)o2)c1	PSMB6	inactivation	human PA28-activated proteasome	–	–	kobs/[I]	0.91 M⁻¹ s⁻¹
Cc1ccc(S(=O)(=O)Nc2ccccc2N2CCCCC2)s1	Acetylcholinesterase (ACHE, Homo sapiens, UniProt P22303)	enzyme activity, inhibitor	–	–	–	IC50	inactive
CC#C/C(=N\OC[C@H]1COCCN1)c1ccc2ncnc(Nc3ccc(OCc4cccc(F)c4)c(Cl)c3)c2c1	Ephrin type-A receptor 5 (EPHA5, Homo sapiens, UniProt P54756)	kinase activity	–	10 µM	–	inhibition	11%
CCN(CC)C(=O)Oc1ccc(C(=O)Nc2cccc3cc[nH]c23)cc1	Glutamate receptor ionotropic, kainate 2 (Homo sapiens, UniProt Q13002)	modulator, two-electrode voltage clamp	Xenopus oocytes	20 µM, together with: 100 µM glutamate	relative to: agonist alone	current response	101 ± 3.2%
Cc1ccc(-c2nsc(=O)o2)cc1	PSMB6	inactivation	human PA28-activated proteasome	–	–	kobs/[I]	1.36 M⁻¹ s⁻¹
O=C(c1ncco1)C1CCc2ccccc2C1 (stereo not shown)	Fatty-acid amide hydrolase 1 (Faah, Rattus norvegicus, UniProt P97612)	enzyme activity, inhibitor, Dixon plot	–	pH 9.0, room temperature, together with: 14C-oleamide	relative to: (S)- over (R)-enantiomer	enantiomer potency ratio	~2 fold
CC1(C)S[C@@H]2CS[C@@H](CS)N2[C@H]1C(=O)O	Metallo-beta-lactamase VIM-2 (VIM-2, Escherichia coli, UniProt Q5U7L7)	slow-binding inhibitor	Pseudomonas aeruginosa	together with: nitrocefin	–	k2 (E*I formation)	9e-05 ± 0.004 s⁻¹

For quick reference, copied from above:
SMILES	target	assay	test system	conditions	scale	endpoint	value
CC1(C)S[C@@H]2CS[C@@H](CS)N2[C@H]1C(=O)O	Metallo-beta-lactamase VIM-2 (VIM-2, Escherichia coli, UniProt Q5U7L7)	slow-binding inhibitor	Pseudomonas aeruginosa	together with: nitrocefin	–	k2 (E*I formation)	9e-05 ± 0.004 s⁻¹
O=C(NOCC1CC1)c1cc(Br)c(F)c(F)c1Nc1ccc(I)cc1Cl	BCHE	enzyme activity	–	–	–	efficacy	-72.6 ± 13.3%
